Measurements of several laboratories.
Every numbered part comes from another study and shows a few of its results, in no order. Substitutions count along the parent as printed.

Study 1 — target: CCNB1, cyclin fold, Cln2 fusion (human); method: yeast growth competition, sequencing; matrix: yeast; setting: weak parent motif; baseline: not given; direction: higher = stronger binding
Starting sequence: KIF20B docking peptide (human); KRAKRKLYTSEIS
`ARAKRKLYTSEIS [K1A]` — result for “normalised enrichment score”: 0.434.
Under “normalised enrichment score”, `KRAKRKAYTSEIS [L7A]` is recorded as 0.317.
`KRAKRALYTSEIS [K6A]`: “normalised enrichment score” 0.438.
`KRAARKLYTSEIS [K4A]` — result for “normalised enrichment score”: 0.42.
`KRAKRKLYTSEIA [S13A]` — result for “normalised enrichment score”: 0.281.
For `KRAKRKLYTSAIS [E11A]`, “normalised enrichment score” read 0.535.

Study 2 — method: protein binding microarray; form: double-stranded DNA, one strand shown; matrix: in vitro; concentration: not given; baseline: not given; direction: higher = stronger binding
Target: Histone acetyltransferase KAT6A, winged helix 1, GST fusion (KAT6A, Homo sapiens, UniProt Q92794, residues 1-85)
Setting: 8-mer, flanks averaged, mean of 2 arrays, mostly near background
Residues (chain): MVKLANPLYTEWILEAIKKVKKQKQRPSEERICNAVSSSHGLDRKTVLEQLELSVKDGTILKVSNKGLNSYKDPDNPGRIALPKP
The E-score of `AAGATTAG` is reported as -0.0481.
`CGCGGACG` gave an E-score of 0.434.
For `CGGAAAGC`, the E-score was 0.245.
With `ATGCCGAC` the E-score was 0.347.
`AAAATGGA` has an E-score of -0.079.
`AACGTCAT` has an E-score of 0.0487.
For `AAACGCGT`, the E-score was 0.251.
For `AGAAACAT`, the E-score was -0.0276.
`CGCCCAGC` has an E-score of 0.148.
The E-score of `AAGCGGAC` is reported as 0.233.
For `GATGCGCA`, the E-score was 0.287.
`CGGGGTCA` has an E-score of 0.328.
`GCGCTAAA` gave an E-score of 0.275.
For `GAGCATAA`, the E-score was -0.0184.
For `CAGCATAG`, the E-score was -0.136.
`TTATGGAA` gave an E-score of -0.146.
With `CGTAATAC` the E-score was 0.225.
`AATTCATA` gave an E-score of 0.0316.
`GCACGGGC` gave an E-score of 0.287.
For `GGAGGCAA`, the E-score was -0.0326.
With `CGATATTA` the E-score was 0.0847.
`AACGCAGG` has an E-score of 0.0782.

Study 3 — method: DHFR PCA, deep sequencing; matrix: yeast; with: (+)-ABA 0.0091 µM; baseline: wild-type fitted maximum; direction: higher = stronger binding
Target: ABI1, truncated, D143A, DHFR fusion (Arabidopsis thaliana)
Setting: methotrexate growth selection, single substitutions
Starting sequence: PYL1, truncated, DHFR fusion (Arabidopsis thaliana); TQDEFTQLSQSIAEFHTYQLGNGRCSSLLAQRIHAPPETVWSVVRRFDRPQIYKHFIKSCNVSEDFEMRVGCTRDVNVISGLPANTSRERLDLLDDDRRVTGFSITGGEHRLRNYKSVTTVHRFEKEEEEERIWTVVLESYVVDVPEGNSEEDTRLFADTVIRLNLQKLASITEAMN; partner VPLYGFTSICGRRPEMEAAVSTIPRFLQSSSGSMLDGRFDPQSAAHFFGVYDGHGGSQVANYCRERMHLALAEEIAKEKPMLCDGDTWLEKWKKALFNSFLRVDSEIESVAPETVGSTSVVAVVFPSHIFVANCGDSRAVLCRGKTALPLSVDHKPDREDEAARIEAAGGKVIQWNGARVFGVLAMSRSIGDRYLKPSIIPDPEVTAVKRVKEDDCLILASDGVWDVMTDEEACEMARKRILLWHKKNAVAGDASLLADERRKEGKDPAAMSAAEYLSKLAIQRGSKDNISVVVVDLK
Under “relative binding score”, `D153V` is recorded as -3.63%.
`G21P`: “relative binding score” 4.13%.
`W41D`: “relative binding score” 0.91%.
Under “relative binding score”, `I105G` is recorded as 0.461%.
`V78W` — result for “relative binding score”: 92.8%.
Under “relative binding score”, `E131A` is recorded as 40.6%.
Under “relative binding score”, `E127M` is recorded as 41.4%.
`R45Q` — result for “relative binding score”: 4.57%.
`W134C` — result for “relative binding score”: 30.2%.
Under “relative binding score”, `T6R` is recorded as 51.1%.
`S59Y`: “relative binding score” 2.38%.
`F15T`: “relative binding score” -1.46%.
Under “relative binding score”, `R111E` is recorded as -2.42%.
`F66W`: “relative binding score” 15.4%.
`Q167M`: “relative binding score” 19.4%.
`G107L` — result for “relative binding score”: -5.91%.
`D92H` — result for “relative binding score”: -5.95%.
`A30W`: “relative binding score” 11.9%.
`C60R`: “relative binding score” 2.05%.
`S80R`: “relative binding score” 5.86%.
`R49P` — result for “relative binding score”: 3.26%.
`N149G` — result for “relative binding score”: 58.1%.
`K54L`: “relative binding score” -0.376%.

Study 4 — method: Sort-seq; measured: YFP reporter; matrix: E. coli; setting: PhoQ-PhoP variant library; with: 10 µM Mg2+; baseline: high Mg2+ state; direction: higher = stronger signaling
Substance: PhoQ, residues 284 288 289 292 302 303 TLASMF
PhoP, residues 12 14 15 18 19 LHHYF (Escherichia coli, UniProt P23836) — fold induction: 15.6.
It gave 3.02 for fold induction (PhoP, residues 12 14 15 18 19 NFFVT (Escherichia coli, UniProt P23836)).
It gave 0.959 for fold induction (PhoP, residues 12 14 15 18 19 VGHWL (Escherichia coli, UniProt P23836)).
For PhoP, residues 12 14 15 18 19 TPWTL (Escherichia coli, UniProt P23836): fold induction read 4.25.

Study 5 — method: RNA Bind-n-Seq; form: RNA; matrix: in vitro; concentration: 365 nM; baseline: no-protein control; direction: higher = stronger binding
Target: RNA binding protein fox-1 homolog 2, RRM domain, GST-SBP tag (RBFOX2, Homo sapiens, UniProt O43251-10, residues 100-194)
Setting: natural RNA segment, single round, ends assumed
Constant ends, left off below: GGGAGUUCUACAGUCCGACGAUC … UGGAAUUCUCGGGUGCCAA
Target sequence (chain): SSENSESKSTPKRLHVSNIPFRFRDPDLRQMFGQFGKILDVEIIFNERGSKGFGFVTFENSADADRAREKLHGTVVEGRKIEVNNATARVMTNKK
`UCGAUCCGGACCAGGACAUGGAACCGUACUUGCCACCAGUUUAGUGGCUCUUCCAGCCUGCAGGGACAGUAAAGGAAGCCAUGGACACUGGCCCCAAGAACUGAUAAGAC` — result for “RBNS enrichment (R)”: 0.479.
`CUGGGAGGGUGGUCUUUGGGUGUUCUCAGGGGCCAAUGGUAAUUUUUGGUUGGGGAGCCAGCUUGGGGUGGGGAGUUUCACCUGGGCCUCCGCUCUCUAACUACAUAAAC` — result for “RBNS enrichment (R)”: 0.507.
Under “RBNS enrichment (R)”, `UUGAGUUGUUUUGGAGUAAUAUCCCACAACUGGGGUAGGAAGCUCAGGACUUUUUUCUUUAAAGCUAGUCAUUUCAAAAGCAUAUUGUAUUUUUUUGAAUGACUACAGUA` is recorded as 0.485.
`GAACCUGACAGAGAAGGGAAGGUUUCUAUAAAAAGAGACACCAGGCUUUGGGGGCCAGGGCUUCAUGAGACAAACUUCUUGCCAGCCAAUCACACAUUCUUCUCAGAAGA`: “RBNS enrichment (R)” 0.311.
For `UAGCUUGGGAUUUUUUUUUUUUUUAAUGUAGAAAAACCCUGUAGAACCAGUGCUUUGGCCACUUUCAUGCUAGCAGAGUGGACCUUGGUCCUCCCUGCUUAGAAAGCUAC`, “RBNS enrichment (R)” read 0.474.
`GUUUUCCACAAGACUGAACAACGUGUAUUUACACGAGGGUAGACGGCAGAUGCCUGACAGAGAGUGGGUUGGCAGACAACACACUAGCAUUUUCACGGGUGUGGGCACAU` — result for “RBNS enrichment (R)”: 0.736.
Under “RBNS enrichment (R)”, `CCCCUGCAAGAAACAAGGCUGCUGGAGUAAGUGUCCCAGGAGAGUCUGACCUCAUCACCAGAGCUGCUGGUGGGGCCUCAUUCCUUGCAGCAGAUGGGUGAGCUGCACCA` is recorded as 1.02.
Under “RBNS enrichment (R)”, `CUGGGGCUUCUAAGGCCUGGCUGCAGAACCUCCUGUGAGGAUAAUAUCUGGUGUUUUCUACAAAUUAAGUUCCUACAUUCCAAUUUUUGUAUCUUUUCUCAGGUUAUGCC` is recorded as 0.881.

For quick reference, copied from above (study 5):
`CUGGGAGGGUGGUCUUUGGGUGUUCUCAGGGGCCAAUGGUAAUUUUUGGUUGGGGAGCCAGCUUGGGGUGGGGAGUUUCACCUGGGCCUCCGCUCUCUAACUACAUAAAC` — result for “RBNS enrichment (R)”: 0.507.
Under “RBNS enrichment (R)”, `CCCCUGCAAGAAACAAGGCUGCUGGAGUAAGUGUCCCAGGAGAGUCUGACCUCAUCACCAGAGCUGCUGGUGGGGCCUCAUUCCUUGCAGCAGAUGGGUGAGCUGCACCA` is recorded as 1.02.
`GUUUUCCACAAGACUGAACAACGUGUAUUUACACGAGGGUAGACGGCAGAUGCCUGACAGAGAGUGGGUUGGCAGACAACACACUAGCAUUUUCACGGGUGUGGGCACAU` — result for “RBNS enrichment (R)”: 0.736.
Under “RBNS enrichment (R)”, `CUGGGGCUUCUAAGGCCUGGCUGCAGAACCUCCUGUGAGGAUAAUAUCUGGUGUUUUCUACAAAUUAAGUUCCUACAUUCCAAUUUUUGUAUCUUUUCUCAGGUUAUGCC` is recorded as 0.881.
`GAACCUGACAGAGAAGGGAAGGUUUCUAUAAAAAGAGACACCAGGCUUUGGGGGCCAGGGCUUCAUGAGACAAACUUCUUGCCAGCCAAUCACACAUUCUUCUCAGAAGA`: “RBNS enrichment (R)” 0.311.
Under “RBNS enrichment (R)”, `UUGAGUUGUUUUGGAGUAAUAUCCCACAACUGGGGUAGGAAGCUCAGGACUUUUUUCUUUAAAGCUAGUCAUUUCAAAAGCAUAUUGUAUUUUUUUGAAUGACUACAGUA` is recorded as 0.485.
